Measurements pooled from the literature.
± marks the error that the study gave.
Organism: Plasmodium falciparum

| Compound | test | test system | setting | how to read | quantity | value |
| --- | --- | --- | --- | --- | --- | --- |
| Cc1ccc(CNC(=O)[C@H](CCCCNC(=O)OCc2ccccc2)NC(=O)[C@H](CC2CCCCC2)NC(=O)Cc2cccnc2)cc1 | – | D10 | 72 h | relative to: HFF EC50 over P. falciparum EC50 | selectivity ratio | > 24 |
| CC[C@H](C)[C@@H]1NC(=O)[C@H](CCCCN)NC(=O)[C@H](CCCCN)NC(=O)[C@H](Cc2ccc(O)cc2)NC(=O)[C@H](CC(C)C)NC(=O)[C@@H]2CCCN2C(=O)[C@H](C)NC(=O)CNC(=O)CNC(=O)[C@H](CO)NC(=O)CNC(=O)CNC(=O)[C@H](CO)NC(=O)[C@H](CCC(=O)O)NC(=O)[C@H](CC(C)C)NC(=O)[C@H](CC(C)C)NC(=O)[C@H](CCCCN)NC(=O)[C@H](CCCCN)NC(=O)[C@H]([C@@H](C)CC)NC(=O)[C@H]([C@@H](C)CC)NC(=O)[C@H](CCCCN)NC(=O)[C@H](CCCCN)NC(=O)[C@H](Cc2ccc(O)cc2)NC(=O)[C@H](CC(C)C)NC(=O)[C@@H]2CCCN2C(=O)[C@H](C)NC(=O)CNC(=O)CNC(=O)[C@H](CO)NC(=O)CNC(=O)CNC(=O)[C@H](CO)NC(=O)[C@H](CCC(=O)O)NC(=O)[C@H](CC(C)C)NC(=O)[C@H](CC(C)C)NC(=O)[C@H](CCCCN)NC(=O)[C@H](CCCCN)NC(=O)[C@H]([C@@H](C)CC)NC1=O | – | 3D7 | 5 mg/mL Albumax II | relative to: RBC HC10 over P. falciparum IC50 | selectivity index | 11.7 ± 2.6 |
| CCc1c(-c2ccc[nH]2)c[nH]c1C=NC12CC3CC(CC(C3)C1)C2 | parasite growth, SYBR Green I fluorescence | D6, chloroquine-sensitive | – | – | IC50 | > 2.5 µM |
| CC1CCN(Cc2cc(/C=C/C(=O)c3ccc(F)cc3)ccc2O)CC1 | – | 3D7 | – | relative to: WRL68 IC50 over P. falciparum EC50 | selectivity index | 1.74 |
| COc1ccc(-c2cn(C3CCCC3)c3ncnc(N)c23)cc1 | – | – | invasion IC50, ring stage | – | intracellular growth | no effect |
| C[OH+][Cu-2]12[O]C(c3cn(-c4ccccc4)nc3-c3ccc(Cl)cc3)=N[N+]1=C(C)c1c(cc(C)oc1=O)[O]2 (centres unmarked) | – | 3D7 | 12.5 µg/mL, 72 h | – | parasitaemia suppression | 78.3% |
| CCN(CC)S(=O)(=O)c1cc(NCC(=O)Nc2ccc(F)c(Cl)c2)ccc1C | parasite growth | 3D7 | blood stage | – | EC50 | 0.27 µM |
| Cc1cc2[nH]c(C(=O)Nc3ccccc3C)c(CN3CCOCC3)c2s1 | parasite growth, [3H]-hypoxanthine incorporation | asexual erythrocytic stages, 3D7 | 50 µM, 48 h | – | inhibition | 42% |
| C[OH+][Cu-2]12[O]C(c3cn(-c4ccccc4)nc3-c3ccc(F)cc3)=N[N+]1=C(C)c1c(cc(C)oc1=O)[O]2 (centres unmarked) | – | 3D7 | 12.5 µg/mL, 72 h | – | parasitaemia suppression | 98% |
| Clc1ccc2c(c1)nc(N1CCNCC1)n2CC1CCCCC1 | pLDH | NF54 | concentration not given, 48 h | – | antiplasmodial activity | inactive |
| Cc1ccc(NCC(=O)Nc2ccc(F)c(Cl)c2)cc1S(=O)(=O)N1CC2CC1CO2 (centres unmarked) | parasite growth | 3D7 | blood stage | – | EC50 | 0.64 µM |

A few entries again:
| Compound | test | test system | setting | how to read | quantity | value |
| --- | --- | --- | --- | --- | --- | --- |
| COc1ccc(-c2cn(C3CCCC3)c3ncnc(N)c23)cc1 | – | – | invasion IC50, ring stage | – | intracellular growth | no effect |
